Measured values pooled from the literature.
Lines come from different studies, so protocols differ. Several values in a cell are separate wells, animals, samples, runs or records. ± marks the error that the study gave. Where no end group is shown, it is not given here. Ends that are not written are not given here.
PRDX6: PRDX6 1-224, Alexa 546 label (Homo sapiens, UniProt P30041)
UniProt P30041, sequence (whole entry, looked up): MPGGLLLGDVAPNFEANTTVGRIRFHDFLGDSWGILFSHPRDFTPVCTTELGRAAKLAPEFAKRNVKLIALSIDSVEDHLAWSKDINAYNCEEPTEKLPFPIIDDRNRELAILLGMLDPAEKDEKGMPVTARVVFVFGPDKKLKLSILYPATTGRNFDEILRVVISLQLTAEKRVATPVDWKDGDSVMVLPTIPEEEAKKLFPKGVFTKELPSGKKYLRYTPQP
B1: BMP7 mature (UniProt P18075); sequence looked up; chain STGSKQRSQNRSKTPKNQEALRMANVAENSSSDQRQACKKHELYVSFRDLGWQDWIIAPEGYAAYYCEGECAFPLNSYMNATNHAIVQTLVHFINPETVPKPCCAPTQLNAISVLYFDDSSNVILKKYRNMVVRACGCH
B2: GSTP1 3-210 A114V (Homo sapiens, UniProt P09211); QSY 35 label; chain PYTVVYFPVRGRCAALRMLLADQGQSWKEEVVTVETWQEGSLKASCLYGQLPKFQDGDLTLYQSNTILRHLGRTLGLYGKDQQEAALVDMVNDGVEDLRCKYISLIYTNYEVGKDDYVKALPGQLKPFETLLSQNQGGKTFIVGDQISFADYNLLDLLLIHEVLAPGCLDAFPLLSAYVGRLSARPKLKAFLASPEYVNLPINGNGKQ
B3: KLRK1 90-216 (Homo sapiens, UniProt P26718); chain PLTESYCGPCPKNWICYKNNCYQFFDESKNWYESQASCMSQNASLLKVYSKEDQDLLKLVKSYHWMGLVHIPTNGSWQWEDGSILSPNLLTIIEMQKGDCALYASSFKGYIENCSTPNTYICMQRTV
B4: RAD30/POL30 binary complex (Saccharomyces cerevisiae); Cy3 on PCNA; chain 1 MSKFTWKELIQLGSPSKAYESSLACIAHIDMNAFFAQVEQMRCGLSKEDPVVCVQWNSIIAVSYAARKYGISRMDTIQEALKKCSNLIPIHTAVFKKGEDFWQYHDGCGSWVQDPAKQISVEDHKVSLEPYRRESRKALKIFKSACDLVERASIDEVFLDLGRICFNMLMFDNEYELTGDLKLKDALSNIREAFIGGNYDINSHLPLIPEKIKSLKFEGDVFNPEGRDLITDWDDVILALGSQVCKGIRDSIKDILGYTTSCGLSSTKNVCKLASNYKKPDAQTIVKNDCLLDFLDCGKFEITSFWTLGGVLGKELIDVLDLPHENSIKHIRETWPDNAGQLKEFLDAKVKQSDYDRSTSNIDPLKTADLAEKLFKLSRGRYGLPLSSRPVVKSMMSNKNLRGKSCNSIVDCISWLEVFCAELTSRIQDLEQEYNKIVIPRTVSISLKTKSYEVYRKSGPVAYKGINFQSHELLKVGIKFVTDLDIKGKNKSYYPLTKLSMTITNFDIIDLQKTVVDMFGNQVHTFKSSAGKEDEEKTTSSKADEKTPKLECCKYQVTFTDQKALQEHADYHLALKLSEGLNGAEESSKNLSFGEKRLLFSRKRPNSQHTATPQKKQVTSSKNILSFFTRKK; chain 2 MLEAKFEEASLFKRIIDGFKDCVQLVNFQCKEDGIIAQAVDDSRVLLVSLEIGVEAFQEYRCDHPVTLGMDLTSLSKILRCGNNTDTLTLIADNTPDSIILLFEDTKKDRIAEYSLKLMDIDADFLKIEELQYDSTLSLPSSEFSKIVRDLSQLSDSINIMITKETIKFVADGDIGSGSVIIKPFVDMEHPETSIKLEMDQPVDLTFGAKYLLDIIKGSSLSDRVGIRLSSEAPALFQFDLKSGFLQFFLAPKFNDEE
B5: enzyme (Bacillus pumilus, UniProt A8FFI9); chain EARSIAWSVDEFFKNREGTFVIQEVKEKSPWVYNKKRAKERFAPQSTFKVANALIGLQTGAVRDEYDIKYWDGVKREIDNWNRDHTLGSGMRDSVVWYYQAMARDIGEERMNHWVKAIHYGNKDISGGIDQFWLSSTLRISPIEQVRFLKQLYEETLPFDLKNMRTVKRMMVQEEEKHATLYGKTGSGSDIGWYVGFIKHEHKTYILATNIKGTGIEAKDITYRILKKYHLMEASV
B6: GLI2 zinc fingers 1-4 (Homo sapiens); chain KEDLDRDDCKQEAEVVIYETNCHWEDCTKEYDTQEQLVHHINNEHIHGEKKEFVCRWQACTREQKPFKAQYMLVVHMRRHTGEKPHKCTFEGCSKAYSRLENLKTHLRSHTGEKPYVCEHEGCNKAFSNASDRAKHQNRTH
B7: GSTP1 3-210 I105V/A114V (Homo sapiens, UniProt P09211); QSY 35 label; chain PYTVVYFPVRGRCAALRMLLADQGQSWKEEVVTVETWQEGSLKASCLYGQLPKFQDGDLTLYQSNTILRHLGRTLGLYGKDQQEAALVDMVNDGVEDLRCKYVSLIYTNYEVGKDDYVKALPGQLKPFETLLSQNQGGKTFIVGDQISFADYNLLDLLLIHEVLAPGCLDAFPLLSAYVGRLSARPKLKAFLASPEYVNLPINGNGKQ
B8: RAD51 (Homo sapiens, UniProt Q06609); chain MAMQMQLEANADTSVEEESFGPQPISRLEQCGINANDVKKLEEAGFHTVEAVAYAPKKELINIKGISEAKADKILAEAAKLVPMGFTTATEFHQRRSEIIQITTGSKELDKLLQGGIETGSITEMFGEFRTGKTQICHTLAVTCQLPIDRGGGEGKAMYIDTEGTFRPERLLAVAERYGLSGSDVLDNVAYARAFNTDHQTQLLYQASAMMVESRYALLIVDSATALYRTDYSGRGELSARQMHLARFLRMLLRLADEFGVAVVITNQVVAQVDGAAMFAADPKKPIGGNIIAHASTTRLYLRKGRGETRICKIYDSPCLPEAEAMFAINADGVGDAKD
B9: EPB41 210-507 (Homo sapiens, UniProt P11171); sequence looked up; chain MHCKVSLLDDTVYECVVEKHAKGQDLLKRVCEHLNLLEEDYFGLAIWDNATSKTWLDSAKEIKKQVRGVPWNFTFNVKFYPPDPAQLTEDITRYYLCLQLRQDIVAGRLPCSFATLALLGSYTIQSELGDYDPELHGVDYVSDFKLAPNQTKELEEKVMELHKSYRSMTPAQADLEFLENAKKLSMYGVDLHKAKDLEGVDIILGVCSSGLLVYKDKLRINRFPWPKVLKISYKRSSFFIKIRPGEQEQYESTIGFKLPSYRAAKKLWKVCVEHHTFFRLTSTDTIPKSKFLALGSKF
B10: adrenodoxin (Bos taurus, UniProt P00257); RED dye on amines; sequence looked up; chain SSSEDKITVHFINRDGETLTTKGKIGDSLLDVVVQNNLDIDGFGACEGTLACSTCHLIFEQHIFEKLEAITDEENDMLDLAYGLTDRSRLGCQICLTKAMDNMTVRVPDAVSDARESIDMGMNSSKIE
UniProt Q2M1P5, sequence (whole entry, looked up): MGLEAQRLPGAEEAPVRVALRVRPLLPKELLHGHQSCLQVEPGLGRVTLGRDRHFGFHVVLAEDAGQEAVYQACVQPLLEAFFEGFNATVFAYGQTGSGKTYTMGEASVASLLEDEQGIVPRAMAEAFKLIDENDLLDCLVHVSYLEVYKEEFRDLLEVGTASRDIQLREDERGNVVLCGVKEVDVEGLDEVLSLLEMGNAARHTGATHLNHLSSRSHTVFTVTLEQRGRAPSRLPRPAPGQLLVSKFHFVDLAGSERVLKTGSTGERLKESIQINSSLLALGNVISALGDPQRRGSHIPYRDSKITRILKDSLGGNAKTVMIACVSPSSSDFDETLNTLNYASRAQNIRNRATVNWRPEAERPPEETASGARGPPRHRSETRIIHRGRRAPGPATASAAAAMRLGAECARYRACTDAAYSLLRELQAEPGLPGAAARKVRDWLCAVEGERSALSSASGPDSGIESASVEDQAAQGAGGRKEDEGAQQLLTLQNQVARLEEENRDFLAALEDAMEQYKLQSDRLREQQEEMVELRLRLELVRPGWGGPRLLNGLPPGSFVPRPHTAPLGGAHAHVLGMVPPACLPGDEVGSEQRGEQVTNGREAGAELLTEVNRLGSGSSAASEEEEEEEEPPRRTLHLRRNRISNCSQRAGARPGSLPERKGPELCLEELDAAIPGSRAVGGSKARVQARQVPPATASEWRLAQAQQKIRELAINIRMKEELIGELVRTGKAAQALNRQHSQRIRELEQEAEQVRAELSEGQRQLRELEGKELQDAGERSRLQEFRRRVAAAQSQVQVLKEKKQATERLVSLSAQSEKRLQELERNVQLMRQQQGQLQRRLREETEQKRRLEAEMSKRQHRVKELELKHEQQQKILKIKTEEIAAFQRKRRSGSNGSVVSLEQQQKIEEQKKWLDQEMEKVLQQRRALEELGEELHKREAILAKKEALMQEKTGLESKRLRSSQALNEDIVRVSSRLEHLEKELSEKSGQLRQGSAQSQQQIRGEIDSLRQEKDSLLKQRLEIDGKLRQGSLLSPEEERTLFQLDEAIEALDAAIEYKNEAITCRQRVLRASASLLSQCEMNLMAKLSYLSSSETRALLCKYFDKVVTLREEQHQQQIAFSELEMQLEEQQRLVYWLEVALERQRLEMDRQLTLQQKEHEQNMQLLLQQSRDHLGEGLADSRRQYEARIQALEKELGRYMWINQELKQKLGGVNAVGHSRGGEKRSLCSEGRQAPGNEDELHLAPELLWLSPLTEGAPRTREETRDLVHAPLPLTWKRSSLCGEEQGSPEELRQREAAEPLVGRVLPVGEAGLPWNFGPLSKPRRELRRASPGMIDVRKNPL
UniProt Q8NFZ0, sequence (whole entry, looked up): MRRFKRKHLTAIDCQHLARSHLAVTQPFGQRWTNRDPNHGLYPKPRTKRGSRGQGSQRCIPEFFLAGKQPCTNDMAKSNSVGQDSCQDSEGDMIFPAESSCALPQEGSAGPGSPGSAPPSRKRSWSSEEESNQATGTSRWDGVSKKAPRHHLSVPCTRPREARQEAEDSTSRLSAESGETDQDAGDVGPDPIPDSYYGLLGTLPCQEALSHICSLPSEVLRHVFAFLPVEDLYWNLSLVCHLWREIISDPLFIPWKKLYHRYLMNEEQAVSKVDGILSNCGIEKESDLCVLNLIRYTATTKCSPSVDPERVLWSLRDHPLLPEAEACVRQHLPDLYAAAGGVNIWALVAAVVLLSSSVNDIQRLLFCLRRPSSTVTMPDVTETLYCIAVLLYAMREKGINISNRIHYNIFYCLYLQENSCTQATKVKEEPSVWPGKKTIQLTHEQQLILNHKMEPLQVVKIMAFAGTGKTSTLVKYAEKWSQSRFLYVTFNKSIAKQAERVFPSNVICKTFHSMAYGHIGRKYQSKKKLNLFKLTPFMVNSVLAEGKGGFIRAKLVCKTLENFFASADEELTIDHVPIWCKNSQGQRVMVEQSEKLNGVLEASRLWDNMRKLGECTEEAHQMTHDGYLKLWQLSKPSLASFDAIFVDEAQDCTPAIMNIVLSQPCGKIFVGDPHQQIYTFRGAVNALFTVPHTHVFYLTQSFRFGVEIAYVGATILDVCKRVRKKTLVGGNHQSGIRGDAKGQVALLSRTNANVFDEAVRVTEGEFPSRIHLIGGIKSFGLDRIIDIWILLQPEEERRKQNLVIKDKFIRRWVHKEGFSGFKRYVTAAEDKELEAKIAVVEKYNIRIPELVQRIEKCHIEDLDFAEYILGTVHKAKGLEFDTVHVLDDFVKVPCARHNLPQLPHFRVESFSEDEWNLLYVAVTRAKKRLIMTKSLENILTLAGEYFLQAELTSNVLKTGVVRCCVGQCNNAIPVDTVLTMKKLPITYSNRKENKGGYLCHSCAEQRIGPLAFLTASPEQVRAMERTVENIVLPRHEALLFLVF
UniProt Q29983, sequence (whole entry, looked up): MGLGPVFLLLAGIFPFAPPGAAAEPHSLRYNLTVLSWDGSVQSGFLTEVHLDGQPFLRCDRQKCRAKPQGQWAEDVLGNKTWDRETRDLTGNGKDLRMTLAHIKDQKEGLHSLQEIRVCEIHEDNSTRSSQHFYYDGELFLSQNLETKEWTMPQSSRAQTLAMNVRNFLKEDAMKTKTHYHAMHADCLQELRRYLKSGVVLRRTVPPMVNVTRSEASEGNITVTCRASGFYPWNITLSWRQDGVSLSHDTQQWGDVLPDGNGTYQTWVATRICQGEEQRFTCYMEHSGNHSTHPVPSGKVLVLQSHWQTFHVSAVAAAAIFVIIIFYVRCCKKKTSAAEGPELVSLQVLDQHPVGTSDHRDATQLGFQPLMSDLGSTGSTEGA
UniProt P31266, sequence (whole entry, looked up): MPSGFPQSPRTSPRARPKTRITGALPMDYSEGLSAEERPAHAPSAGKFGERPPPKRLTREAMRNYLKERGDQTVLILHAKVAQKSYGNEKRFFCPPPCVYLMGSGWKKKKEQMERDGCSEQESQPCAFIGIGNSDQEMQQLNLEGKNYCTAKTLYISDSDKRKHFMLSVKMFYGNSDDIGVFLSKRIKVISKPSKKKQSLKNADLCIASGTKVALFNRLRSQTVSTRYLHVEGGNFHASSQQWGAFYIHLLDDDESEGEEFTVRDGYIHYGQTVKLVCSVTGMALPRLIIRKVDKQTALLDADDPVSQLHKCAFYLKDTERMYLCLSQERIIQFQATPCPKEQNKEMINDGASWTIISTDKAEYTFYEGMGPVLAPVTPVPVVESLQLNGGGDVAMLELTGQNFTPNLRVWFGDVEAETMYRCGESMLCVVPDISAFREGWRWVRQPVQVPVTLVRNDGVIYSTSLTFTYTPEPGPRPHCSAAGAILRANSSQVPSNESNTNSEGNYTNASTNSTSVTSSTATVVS
UniProt Q4G0S4, sequence (whole entry, looked up): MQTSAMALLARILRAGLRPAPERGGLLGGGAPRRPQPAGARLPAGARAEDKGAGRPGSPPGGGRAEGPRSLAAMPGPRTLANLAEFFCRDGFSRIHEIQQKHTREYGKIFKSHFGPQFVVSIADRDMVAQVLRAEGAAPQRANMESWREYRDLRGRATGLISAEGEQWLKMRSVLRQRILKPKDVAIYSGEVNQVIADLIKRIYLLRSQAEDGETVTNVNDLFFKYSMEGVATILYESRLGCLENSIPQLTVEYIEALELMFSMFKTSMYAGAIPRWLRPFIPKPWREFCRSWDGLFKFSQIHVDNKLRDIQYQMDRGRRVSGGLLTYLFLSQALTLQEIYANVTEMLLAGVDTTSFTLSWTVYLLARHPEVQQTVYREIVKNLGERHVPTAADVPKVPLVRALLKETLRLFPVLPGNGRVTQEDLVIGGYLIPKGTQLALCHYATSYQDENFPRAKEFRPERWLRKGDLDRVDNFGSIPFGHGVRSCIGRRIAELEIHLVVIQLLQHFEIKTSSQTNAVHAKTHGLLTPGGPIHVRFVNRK
UniProt P12689, sequence (whole entry, looked up): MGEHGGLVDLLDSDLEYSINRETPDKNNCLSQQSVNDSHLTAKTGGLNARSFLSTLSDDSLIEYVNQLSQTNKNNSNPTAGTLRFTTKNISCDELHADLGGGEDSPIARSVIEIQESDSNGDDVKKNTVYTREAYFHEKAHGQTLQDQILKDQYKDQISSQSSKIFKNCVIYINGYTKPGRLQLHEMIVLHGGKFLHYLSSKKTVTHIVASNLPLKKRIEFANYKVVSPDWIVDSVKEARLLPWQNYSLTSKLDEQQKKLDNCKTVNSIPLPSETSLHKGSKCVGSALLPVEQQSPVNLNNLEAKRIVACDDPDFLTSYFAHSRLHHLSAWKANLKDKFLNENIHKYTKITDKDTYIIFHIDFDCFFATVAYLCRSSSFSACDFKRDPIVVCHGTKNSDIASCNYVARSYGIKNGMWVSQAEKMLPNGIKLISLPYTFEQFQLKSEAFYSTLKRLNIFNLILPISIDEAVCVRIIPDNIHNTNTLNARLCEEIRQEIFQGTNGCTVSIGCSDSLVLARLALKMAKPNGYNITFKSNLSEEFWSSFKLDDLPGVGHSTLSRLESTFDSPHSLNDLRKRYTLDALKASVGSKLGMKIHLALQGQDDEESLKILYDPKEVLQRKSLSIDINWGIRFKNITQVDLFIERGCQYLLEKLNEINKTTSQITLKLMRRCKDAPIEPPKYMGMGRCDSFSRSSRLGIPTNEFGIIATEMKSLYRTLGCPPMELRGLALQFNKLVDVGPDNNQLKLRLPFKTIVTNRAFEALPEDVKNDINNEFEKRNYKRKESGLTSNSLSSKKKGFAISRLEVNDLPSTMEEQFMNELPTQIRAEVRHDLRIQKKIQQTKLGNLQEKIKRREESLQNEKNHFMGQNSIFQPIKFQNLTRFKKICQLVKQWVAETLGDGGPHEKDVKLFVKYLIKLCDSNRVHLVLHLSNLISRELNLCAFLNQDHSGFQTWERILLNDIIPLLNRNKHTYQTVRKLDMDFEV

The Kd of `MYBPC3 (Homo sapiens, UniProt Q14896)` is reported as 24000 ± 7600 nM (ACTC1 F-actin (Oryctolagus cuniculus); co-sedimentation; apparent).
With `IINFEKE` the Hill coefficient was 2.3 (ERAP1 (Homo sapiens, UniProt Q9NZ08, F803R); substrate; peptide; pH 8.0, 27 °C, mutant F803R, added: L-AMC, peptide activator 100 µM).
The Kd of `DLAT L2 domain, lipoylated (Homo sapiens)` is reported as 1300 nM (PDHA1/PDHB α2β2 heterotetramer 30-390 (Homo sapiens); ITC; pH 7.5, 20 °C, KCl 10 mM).
With `B1 (BMP7 mature)` the Kd was 108 ± 5.9 nM (Grem2 22-168, glutathionylated (Mus musculus, UniProt O88273); SPR; pH 7.5, 25 °C, NaCl 500 mM, apparent, steady-state).
`B2 (GSTP1 3-210 A114V)` has a Kd of 94 nM (PRDX6; FRET; pH 7.4, apparent, added: GSH 1 mM).
For `KCNTATCATQRLANFLVHSSNNFGPILPPTNVGSNTY (Pramlintide; not fully specified (C-terminus, bridges); cysteine pairing not given here; sequence looked up)`, “adverse event incidence” read 0% (measured: Constipation; peptide, obese or overweight humans; concentration not given, ITT population).
For `{5,6‑carboxyfluorescein}-ATFLIQEYFRKFKKRKEQGLVGKPSQ (CACNA1C 1650-1675 (Oryctolagus cuniculus); N-terminal fluorescein)`, the Kd was 119000 ± 32000 nM (Calm1 (Rattus norvegicus, UniProt P0DP29); fluorescence polarisation; peptide; pH 7.4, 22 °C, 100 mM KCl, without Ca2+).
The Kd of `B3 (KLRK1 90-216)` is reported as 103 nM (MICA 24-297, Alexa Fluor 647 on Cys273 (Homo sapiens, UniProt Q29983); FRET or BRET).
`KTLMGNPWFQRAKMPRALDFSGHTHPVATFQPSRPESVNDLFLCPQKELT (IFNLR1 250-299 (Homo sapiens, UniProt Q8IU57); sequence looked up)` has a Kd of 70.5 nM (JAK1 35-559 (Homo sapiens, UniProt P23458); BLI; peptide; apparent, effective Kd).
The Kd of `B4 (RAD30/POL30 binary complex)` is reported as 18 nM (REV1, Cy5 label (Saccharomyces cerevisiae, UniProt P12689); single-molecule TIRF; 1 nM).
For `ERRDSLLVIQWNIRAFMGVKNWPWMKLYFKIK (MYH7 805-837 (Homo sapiens))`, the Kd was less than 500 nM (MYL2 R58Q (Homo sapiens, UniProt P10916); fluorescence titration; peptide; apparent).
For `B5 (enzyme)`, the kcat was 0.26 ± 0.02 s⁻¹ (C[C@@H](O)[C@H]1C(=O)N2C(C(=O)O)=C(SCCN=CN)C[C@H]12; steady-state kinetics; pH 7).
`B6 (GLI2 zinc fingers 1-4)` gave a Kd of 103 nM and 160 nM (KIF7 460-600 (Homo sapiens, UniProt Q2M1P5); BLI).
With `chlD N-terminal AAA+ domain (Synechocystis) (sequence not shown)` the Kd was 1360 ± 200 nM (chlI C244S, Alexa Fluor 488 label (Synechocystis); MST; pH 7.8, 20 °C, added: MgADP 3 mM).
For `B7 (GSTP1 3-210 I105V/A114V)`, the Kd was 57.2 nM (PRDX6; FRET; pH 7.4, apparent, added: GSH 1 mM).
With `MENVKKATATATWMVPTAQ (L3MBTL3 52-70 T62A (Homo sapiens, UniProt Q96JM7-2); sequence looked up)` the Kd was 300 nM (Rbpj 53-474 (Mus musculus, UniProt P31266); ITC; peptide; pH 6.5, 25 °C, NaCl 150 mM, one site model).
For `UGT1A9 (Homo sapiens, UniProt O60656)`, the Vmax/Km was 73000 µL/min/mg (COc1ccc2oc(-c3ccccc3)c(O)c(=O)c2c1; steady-state kinetics; pH 7.4, 37 °C).
For `CGA/FSHB mature, N-linked glycans (Equus caballus) (sequence not shown)`, the Kd was 1.4 nM (FSHR (Homo sapiens, UniProt P23945); SPR; HEK293, membranes).
For `B8 (RAD51)`, the Kd was 16 ± 4.5 nM (FBH1, polyubiquitinated (Homo sapiens, UniProt Q8NFZ0); single-molecule TIRFM; apparent, added: ATP 1 mM).
With `[D-Pro7]angiotensin-(1-7)` the maximal vasorelaxation was 12 ± 1% (antagonist; male Wistar rat, isolated renal artery; 10 µM, 20 min, added: angiotensin-(1-7), phenylephrine 3 × 100 nM).
`SIYNFEKL` gave an IFN-gamma+ cells of 50.2% (OT-I CD8+ T cells; peptide; concentration not given, primed 5 d, OVA257 100 ng/mL restimulation, added: no TGF-beta1).
With `B9 (EPB41 210-507)` the Kd was 70 ± 3 nM (MPP1 (Homo sapiens, UniProt Q00013); SPR; 50-400 nM, pH 7.4, 25 °C).
`SIIVFEKL` has an IFN-gamma+ cells of 30.4% (OT-I CD8+ T cells; peptide; concentration not given, primed 5 d, OVA257 100 ng/mL restimulation, added: 20 ng/mL TGF-beta1 from day 2).
For `B10 (adrenodoxin)`, the Kd was 30 nM (CYP27C1 81-542 (Homo sapiens, UniProt Q4G0S4); MST; pH 7.4, 25 °C, oxidized, single-site model).

Repeated from above:
The Kd of `B3 (KLRK1 90-216)` is reported as 103 nM (MICA 24-297, Alexa Fluor 647 on Cys273 (Homo sapiens, UniProt Q29983); FRET or BRET).
`SIYNFEKL` gave an IFN-gamma+ cells of 50.2% (OT-I CD8+ T cells; peptide; concentration not given, primed 5 d, OVA257 100 ng/mL restimulation, added: no TGF-beta1).
